Results pooled from the literature.
Numbered parts are unrelated; each lists some results of a single study. Positions count from the first letter of the parent shown.

Sample 1
Target: Prothrombin, mature alpha-thrombin (F2, Homo sapiens, UniProt P00734)
Method: aptamer microarray, sandwich
Form: DNA with 2'F-ANA
Matrix: in vitro
Tested at: 200 nM
Notes: whole 15-mer aptamer, many near background
Together with: Cy3 exosite-II aptamer, 400 nM
Direction: higher = stronger binding
Strand: GGTTGGTGTGGTTGG
| Modification | mean fluorescence intensity |
| --- | --- |
| 2'F-ANA at 3 4 6 7 8 9 10 11 14 | 169 a.u. |
| 2'F-ANA at 1 2 6 7 8 9 11 | 141 a.u. |
| 2'F-ANA at 1 2 3 6 9 10 12 13 14 | 58.5 a.u. |
| 2'F-ANA at 2 4 8 9 10 12 13 14 | 62.4 a.u. |
| 2'F-ANA at 1 2 3 4 6 7 9 10 11 13 14 | 49.7 a.u. |
| 2'F-ANA at 5 8 11 13 14 | 53.1 a.u. |
| 2'F-ANA at 2 11 12 15 | 674 a.u. |
| 2'F-ANA at 1 4 5 6 8 10 13 15 | 56.8 a.u. |
| 2'F-ANA at 1 3 5 7 9 10 13 14 15 | 75.5 a.u. |
| 2'F-ANA at 2 3 4 5 6 8 11 12 15 | 151 a.u. |
| 2'F-ANA at 1 2 5 8 9 10 13 | 44.8 a.u. |
| 2'F-ANA at 1 5 6 8 9 10 12 | 52.1 a.u. |
| 2'F-ANA at 4 5 9 14 | 65.6 a.u. |
| 2'F-ANA at 1 2 3 4 6 7 8 9 10 11 14 15 | 52.6 a.u. |
| 2'F-ANA at 3 6 8 9 11 12 | 1160 a.u. |
| 2'F-ANA at 2 4 5 7 9 10 15 | 47.4 a.u. |
| 2'F-ANA at 3 5 8 9 10 13 15 | 62.1 a.u. |
| 2'F-ANA at 2 4 5 6 12 15 | 139 a.u. |

Sample 2
Target: RNA binding protein fox-1 homolog 2, RRM domain, GST-SBP tag (RBFOX2, Homo sapiens, UniProt O43251-10, residues 100-194)
Method: RNA Bind-n-Seq
Form: RNA
Matrix: in vitro
Tested at: 365 nM
Notes: natural RNA segment, single round, ends assumed
Reference: no-protein control
Direction: higher = stronger binding
Shared flanks, not repeated: GGGAGUUCUACAGUCCGACGAUC … UGGAAUUCUCGGGUGCCAA
Residues (chain): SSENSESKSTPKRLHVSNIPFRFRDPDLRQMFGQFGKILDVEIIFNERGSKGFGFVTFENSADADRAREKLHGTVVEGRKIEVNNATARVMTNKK
| Strand | RBNS enrichment (R) |
| --- | --- |
| AGGAUGGCUGUUUAUAAUUUGGGGAGAGAUAGGGUGGGAGGCAGGGCAAUGCAGGAUCCAAAUCCUCAUCUUACUUUCCCGACCUUAAGGAUGUAGCUGCUGCUUGUCCU | 0.652 |
| CCCGUCCCUGCCCCGCCACCUCCCCAAAGAAUUGAAACGUCAGCUCAGGAUAUGGGGCCAAUCUCUGUGAGUCCAGCAUGUACCUGUCUCUCCCUAGUGUCCCUUCAGCC | 6.64 |
| ACCUUGUAUAGCCAGUUUGACCAUCUGCCUUAUAGACAAACAUUGCUGUUCUUCUAUGUCGUCCUCUUGAGAAAGCUGCAAGGGUUUACCUCUUUCCUUGACUCUCUUCU | 0.253 |
| UCUUCCUGGCAAACCUGGACUGGAAGGGCCAUUUGCAGCACUGUCCUGGAGCUAAUACACUGUUUCACUGCCUCUGCCAUAUAAUGAUGCCAGCACUAGCCAGCUGGUGG | 0.347 |
| GAGGUGAGGCCUAAGUAUGAGGCACCUGAAGAUAAAACCAAUGGGCAGAACCAAUGGCCCCAGUCGGCUUUUGAGGUCUUGGUGAGAAGUACUGGCCACGAAAGGGUCUU | 2.27 |
| UCCUGAUUCUGUCCCGGGUUCUUUGCUACUUCCUUGAAAAUACUCUAGCUUCAUGCUGGGUCAAGGUGGUUUACCUGGAUGACCCCCCUCCCCCGCCCUCGCCCAUCCCA | 0.581 |
| GGAGGCUGGCAGAAGCUGAGACGUGACUGUCUAGGAGUAACACUCAUUAAAGCUUUCAUUUUGGCACAGGUCAUCUUCUGUGUUCUGGUUGGGAGUGAAUGGGUGGGAGU | 0.32 |
| CAUUGGGUUGUGGUUUGAACAUCGAGGGUGUGAAGAAAAUGAAGCAGUGGCUAAAGAAAUCUUCUCCUCUCACAAAAUACAACACUAGUGUCUUUCUUUUCUCUUUCUAG | 0.39 |
| GCUUUACUGAAGAUCUGUUUCUUUUGUACUCUGACUACACAUGACCCAAUUAUAUUCUAAUGUGAAAAUAUUAGCAUAAAUAGGUGAAAUUGCUCUUCUGAAAAUUGUGU | 0.319 |
| UACUAAAAAGAUUCCUCGUUAUUGUUGUUGCCAAAGAGAAACAAAAAUGAUUUUGCUUUCCAAGCUUGGUUUGUGGCGUCUCCCUCGCAGAGCCCUUCUCGUUUCUUUUU | 0.371 |
| GGGCCUGCCUCUGACCUGCCGUGUCCUUUGCAGGAAGGAGGUAGGCACCUUUCUGAGCUUAUUCUAUUCCCCACCCACACCCCCAGGCAGGGUUGGAAAUGAAGGACUUU | 0.284 |
| UGUGGGUUCUUGCCAAGCAUCAGAACCAGUCUCCAGGGCCUCCCGACGCCGAUCCAUAGUACUGUACAGACCCACCGCCACCCUUCUCCUCGGAAGAUGCACUGUGCUGU | 0.657 |

Sample 3
Target: Max-binding protein MNT, bHLH-zipper, MAX partner unstated (MNT, Homo sapiens, UniProt Q99583, residues 220-300)
Method: protein-binding microarray
Form: double-stranded DNA, one strand shown
Matrix: in vitro
Tested at: not given
Notes: k-mer, scored over probes, only values ≥0.25
Direction: higher = stronger binding
Residues (chain): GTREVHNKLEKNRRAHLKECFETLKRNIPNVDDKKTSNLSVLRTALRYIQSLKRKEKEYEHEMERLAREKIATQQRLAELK
| Strand | E-score |
| --- | --- |
| ATGTGCGC | 0.379 |
| GCACACGC | 0.403 |
| AGGCGTGG | 0.329 |
| AAGCATGG | 0.425 |
| AATACATG | 0.26 |
| GGCACGCA | 0.25 |
| CACGCCCA | 0.354 |
| ACGCCTCC | 0.27 |
| CACCTGAC | 0.278 |
| AACCACGT | 0.46 |
| AACGTGTG | 0.406 |
| ACATGTCC | 0.349 |
| CTCGTGAA | 0.307 |
| ACACGCAC | 0.365 |
| ACACCCCA | 0.305 |

Sample 4
Target: Histone acetyltransferase KAT6A, winged helix 2, GST fusion (KAT6A, Homo sapiens, UniProt Q92794, residues 85-181)
Method: protein binding microarray
Form: double-stranded DNA, one strand shown
Matrix: in vitro
Tested at: not given
Notes: 8-mer, flanks averaged, mean of 2 arrays, mostly near background
Reference: not given
Direction: higher = stronger binding
Construct (chain): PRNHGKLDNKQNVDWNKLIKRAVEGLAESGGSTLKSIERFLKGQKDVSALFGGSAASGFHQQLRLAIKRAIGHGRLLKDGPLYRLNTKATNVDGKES
| Strand | E-score |
| --- | --- |
| CGATATAA | -0.0409 |
| CAAATTCC | -0.0998 |
| ACTACCCG | -0.00993 |
| CCGTCTGA | -0.0609 |
| ACTTGGGC | -0.153 |
| AAACTAAG | 0.0789 |
| ACGAGTCG | 0.0278 |
| AGAGCGCA | -0.0822 |
| GTTTGATA | 0.109 |
| AACACTGC | 0.0686 |
| CTGACTTC | 0.0943 |
| CAGGGGCC | 0.0918 |
| TCGATCGA | 0.0484 |
| AATGACAA | -0.0369 |
| AGTACAAG | -0.0732 |
| GAATTAAC | 0.14 |
| GTGAACCA | 0.139 |
| CGGGCCCA | 0.068 |

Sample 5
Target: RING finger protein unkempt homolog, zinc fingers 1-6, GST-SBP tag (UNK, Homo sapiens, UniProt Q9C0B0, residues 30-357)
UniProt Q9C0B0, sequence (30-357, looked up): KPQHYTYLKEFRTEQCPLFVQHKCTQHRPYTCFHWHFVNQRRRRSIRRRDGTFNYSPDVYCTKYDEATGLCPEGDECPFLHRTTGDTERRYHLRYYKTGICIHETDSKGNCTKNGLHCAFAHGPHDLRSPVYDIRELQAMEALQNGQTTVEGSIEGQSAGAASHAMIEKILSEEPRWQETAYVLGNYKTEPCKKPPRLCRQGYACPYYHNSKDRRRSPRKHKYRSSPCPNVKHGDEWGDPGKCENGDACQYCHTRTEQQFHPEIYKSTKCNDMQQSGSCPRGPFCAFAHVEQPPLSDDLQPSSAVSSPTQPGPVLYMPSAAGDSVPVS
Method: RNA Bind-n-Seq
Form: RNA
Matrix: in vitro
Tested at: not given
Notes: RNA with constant flanks, human-mouse chimeric sites, ends assumed
Reference: input RNA pool
Direction: higher = stronger binding
Shared flanks, not repeated: GGGAGUUCUACAGUCCGACGAUC … CAACAGAGGAUUGAGCAUCA
| Strand | bound/input enrichment |
| --- | --- |
| GAGUCGAGCAAACUUGAAACAAUUCGUUAUCUUGCAGCCUCAGUGUUCACUUGCUUGGCGAUAGCAUUGGGGUUUUAUAUAGAUUCUAAGGAGAACUGACGAUGAUGCUGCCGCUGCUGC | 0.265 ratio |
| CUGAGGAUACCACUGAAGAGACCUUAAAAGAAUCAUUUGAGGGCUCUGUUCGUGCAAGAAUAGUCACUGAUCGGGAAACUGGUUCUUUCCAAAGGGUUUGGUUUUGUGACUUUAAUAGUG | 0.363 ratio |
| GAUGAUAAUCACACAAACAAGUCACUGUUACAUGACCAGCCUUGGGAUUCUUCUCCUGAUUAAUAUUCUCCCUGGAACCACUAGCCAAGGGGAAUCAAGACGACAAGAACCCGGGGACUU | 0.165 ratio |
| GGACAUCUGUCAAAUUGUUAUGUUCCUGUGAAACAAGUGAACACUCUUCAUAUACUAAUCUGCUUGUACAUCUGUAUUUGUAUAAUAUGUAAAUAUGUUAAUCCAAGCAAUGUGUCACUU | 0.15 ratio |
| GGGGAGAAACCUUACGAGUGUGUGCAGUGUGGGAAAUCGUAUAGUCAGAGCUCAAACCUCUUCAGACAUCAGAGAAGACACAAUGCAGAAAAACUUUUGAAUGUUGUGAAGGUUUAAGAA | 0.737 ratio |
| AGAGAUAAGACAUCCAGGAACAUGCGAGGGUCACGGAUGAAUGGGUUGCCUAGCCCCACUCACAGCGCCCACUGUAGCUUCUACCGAACCAGAACCUUGCAGGCACUGAGUAAUGAGAAG | 0.224 ratio |

Sample 6
Target: CCNA2, cyclin fold, Cln2 fusion (human)
Method: yeast growth competition, sequencing
Matrix: yeast
Notes: strong parent motif
Reference: not given
Direction: higher = stronger binding
Starting sequence: ITGB3BP docking peptide (human); MPVKRSLKLDGLL
| Change | normalised enrichment score |
| --- | --- |
| MPVKRSLKADGLL [L9A] | 1.52 |
| MPVKRSLALDGLL [K8A] | 1.78 |
| MPVKKSLKLDGLL [R5K] | 0.545 |
| MPVKRSLKLDGAL [L12A] | 2.4 |
| APVKRSLKLDGLL [M1A] | 0.879 |
| MPVKASLKLDGLL [R5A] | 0.569 |
| MPVKRALKLDGLL [S6A] | 3.22 |

Sample 7
Target: ABI1, truncated, D143A, DHFR fusion (Arabidopsis thaliana, UniProt P49597)
Method: DHFR PCA, dose-response
Matrix: yeast
Notes: Hill fit, mean, not affinity
Together with: (+)-ABA, dose series
Direction: lower = more sensitive
Starting sequence: PYL1, truncated, DHFR fusion (Arabidopsis thaliana, UniProt Q8VZS8); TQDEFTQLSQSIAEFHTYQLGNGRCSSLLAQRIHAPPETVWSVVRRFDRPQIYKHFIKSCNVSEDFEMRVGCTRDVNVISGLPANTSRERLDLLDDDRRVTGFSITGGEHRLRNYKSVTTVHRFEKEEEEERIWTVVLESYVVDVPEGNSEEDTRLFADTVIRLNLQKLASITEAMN
| Change | ABA EC50 [µM] |
| --- | --- |
| D48W | 266 |
| D96W | 251 |
| E151A | 2.18 |
| P83D | 37.3 |
| V76L | 3.57 |
| D96F | 433 |
| S59I | 57.3 |
| E147Q | 2.76 |
| T101W | 162 |
| V76M | 75.2 |
| G108R | 529 |
| T101S | 11.3 |
| S150R | 46.1 |
| Y53L | 913 |
| A170R | 1.48 |
| P37D | 26.1 |
| G23R | 5.77 |
| E4K | 4.92 |
| R155K | 3.27 |
| E38L | 73.7 |
| V142C | 2.54 |
| F5A | 3.94 |
| F56A | 239 |
| G148T | 11.7 |
| N77K | 1.36 |
